Published values of several laboratories.
Parts stem from different laboratories: compare values within a part only. Positions count from the first letter of the parent shown.

Block 1
Target: Sal-like protein 4, full length isoform B (SALL4, Homo sapiens, UniProt Q9UJQ4-2, residues 1-616)
Method: universal PBM
Form: double-stranded DNA, one strand shown
Medium: in vitro
Concentration: not given
Notes: 8-mer, flanks averaged, mean of replicates
Reading: higher = stronger binding
Oligonucleotide	E-score
CTCTCCAG	-0.342
ATCGTGTC	0.0299
GCCTAAGC	-0.17
CTAGTTAC	-0.0719
GCCGGGCC	-0.399
CTCCGACC	-0.242
GAAAACCA	0.00453
CAAAGGGA	0.0301
CACATATG	0.126
ACTCGCGC	-0.144
TAGTTGCA	-0.0186
AGCACTTC	0.0224
CCGTGCAA	-0.113
CCCAGCCA	-0.142
GGATCTCA	-0.094
GCTGTGCC	-0.17

Block 2
Target: RNA binding protein fox-1 homolog 2, RRM domain, GST-SBP tag (RBFOX2, Homo sapiens, UniProt O43251-10, residues 100-194)
Method: RNA Bind-n-Seq
Form: RNA
Medium: in vitro
Concentration: 365 nM
Notes: natural RNA segment, single round, ends assumed
Relative to: no-protein control
Reading: higher = stronger binding
Residues (chain): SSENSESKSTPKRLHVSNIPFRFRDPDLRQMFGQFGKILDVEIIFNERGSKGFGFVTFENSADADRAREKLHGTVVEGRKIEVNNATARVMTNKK
Oligonucleotide	RBNS enrichment (R)
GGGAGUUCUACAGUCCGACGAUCUUGCACUUAUGAACAAGGAACCUUCUUUUCAAUUUCUGUGUAAUUUGCAAGGCUGUACAAUGUGUGCUGAUGCAAGCCUUUUUCAGUUCAAGAGAAUAAAUGUUUACAAAUGGAAUUCUCGGGUGCCAA	0.791
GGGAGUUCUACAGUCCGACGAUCUACUUUCUUUGAACAUACUUUGACCUGAAGCUCAAAGGUGGCAGUUGUGAGAUUGGGACACAUAUCUUGCCCAAUCAGAAGCUGUUUCUUAUCUUGAGAGUUAGGAGCACUGGAAUUCUCGGGUGCCAA	0.341
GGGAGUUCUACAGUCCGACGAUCGCUGGGCACAUGCUGUGUACCACCGACUGCAGUCUGGCCCUGUUCUUAGUGGCAUCUGCCAAUGAGAUAUCACCUUCCCCCUCUCCUCUUUAAUCUCUUGUUAAAUUACCUGGAAUUCUCGGGUGCCAA	0.68
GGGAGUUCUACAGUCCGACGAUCUACACUUUUUUGGUCUGUUUUUGUGCUAGACUGUAAGUUCCUUGGGGGCAGGGCCUUUGUCUGUCUCAUCUCUGUAUUCCCAAAUGCCUAACAGUACAGAGCCAUGACUCUGGAAUUCUCGGGUGCCAA	0.417
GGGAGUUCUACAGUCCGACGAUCUAUUUAAAAUAUUUCUGAAGUUCAGUAAUUUGGAUGCCUUCAUUAGUAGAUGCUGUCCUAUAUACCUAUUAAAAAUGCCAAACACUGAUAACAUUGAACAUGUUCAUAUUUGGAAUUCUCGGGUGCCAA	0.423
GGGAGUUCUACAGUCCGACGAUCGCUAAAGCCGAUGGUGAAGAAAAGGUGCUGGUCUCAUGAGCCCUGAAGAAUGAACUCAGAGGAGGUUGUUUACAUGAGGUUCUCCCACUCACCAGCUGUUGAGAGUCUGCUGGAAUUCUCGGGUGCCAA	0.507
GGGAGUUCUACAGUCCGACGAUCUAUGAAAAACCCAUUUAGUACAGAUUUUCAUAGUGUAGAGACUGAUUUUGCCCUGUAACUGCAUGUACAUGGUGUAUUUUGCCAUUAAGUCUUUUAUUUGUGGCAAUUUUUGGAAUUCUCGGGUGCCAA	2.65
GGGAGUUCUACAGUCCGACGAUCAAGUUGUAGCCCAGCUGGAGGACAGGCCUUUGCUCCCUGGGCAGGUGCCCACUGGUGUCCCAUGGAAUCCACUCGGGUUGAAAUGUGGAUCUCUCCAUGGGACUCUUUAAUGGAAUUCUCGGGUGCCAA	1.49
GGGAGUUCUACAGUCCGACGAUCGCAGGUCAGGUUAAUGGAAGAACGAGUCUGGUGGUAUAGCGUGGUUUGAGAGAUGUCUUUCAGUUUUCUUUUCCUGCAUCAUACCUGGAAUGCAUGCAGCCUGCUGUUGGUGGAAUUCUCGGGUGCCAA	25.5
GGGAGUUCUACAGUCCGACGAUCUUGAGGUUUCCAGCCUCUUCCAAGACCUUGCCAGGCUGAGUGGGGCCUGAGAGCUUGCAGGCACUUAAAGCUUCCUGGCAAAGGGGCCGGCCACAGGCAGAGGGAAAGGAUGGAAUUCUCGGGUGCCAA	1.01
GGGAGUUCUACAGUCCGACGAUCAUUGUGUGUGCGUGCGUGUGUGAUGUCAGGCUGCCACGUAAAACUUCAGAGAAAAAUCUUAAAAGCAGACCAUCCUUUUUUGCAUGCUCUAUUCUAAGUAGAAUGUUCAAUGGAAUUCUCGGGUGCCAA	9.66
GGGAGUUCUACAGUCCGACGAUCAAAUAGCAUAAGCAUAUGCUUUUAACUCAUCAUAUUUUUAGUAGUGCUUUUUAGUUUUGUAUAUCAGAUGUCUAGCAGGCAUUCAGCUAAUGCAAAAACAGAUUAGUAUGUGGAAUUCUCGGGUGCCAA	0.531

Block 3
Target: ABI1, truncated, D143A, DHFR fusion (Arabidopsis thaliana)
Method: DHFR PCA, deep sequencing
Medium: yeast
Notes: methotrexate growth selection, single substitutions
With: (+)-ABA 1.4 µM
Relative to: wild-type fitted maximum
Reading: higher = stronger binding
Starting sequence: PYL1, truncated, DHFR fusion (Arabidopsis thaliana); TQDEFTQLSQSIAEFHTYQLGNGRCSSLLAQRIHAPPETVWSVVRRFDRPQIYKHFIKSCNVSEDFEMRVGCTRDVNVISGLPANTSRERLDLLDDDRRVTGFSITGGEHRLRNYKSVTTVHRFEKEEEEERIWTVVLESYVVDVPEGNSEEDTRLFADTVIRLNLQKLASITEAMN; partner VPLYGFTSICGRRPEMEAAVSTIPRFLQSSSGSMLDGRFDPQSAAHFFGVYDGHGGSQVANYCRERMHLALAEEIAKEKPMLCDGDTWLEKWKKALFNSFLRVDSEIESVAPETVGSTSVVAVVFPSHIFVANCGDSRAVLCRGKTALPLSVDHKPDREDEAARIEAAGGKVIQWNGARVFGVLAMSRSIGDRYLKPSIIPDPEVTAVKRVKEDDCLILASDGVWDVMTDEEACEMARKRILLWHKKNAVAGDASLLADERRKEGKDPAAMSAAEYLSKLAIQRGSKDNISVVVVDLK
Variant	relative binding score [%]
T135Y	-8.95
S171C	36.6
L164C	71.4
S59L	5.66
T101F	77.7
Q51H	48.3
K168T	56
V143R	-4.12
H110I	-2.99
G148L	-4.86
D96Q	-2.88
R74H	2.48
G107P	-6.45
E64V	32.3
D48V	-4.54
D65A	29.2

Block 4
Target: Centromere-binding protein 1, full length, His-tagged (CBF1, Saccharomyces cerevisiae, UniProt P17106, residues 1-351)
Chain of UniProt P17106 (whole entry, looked up): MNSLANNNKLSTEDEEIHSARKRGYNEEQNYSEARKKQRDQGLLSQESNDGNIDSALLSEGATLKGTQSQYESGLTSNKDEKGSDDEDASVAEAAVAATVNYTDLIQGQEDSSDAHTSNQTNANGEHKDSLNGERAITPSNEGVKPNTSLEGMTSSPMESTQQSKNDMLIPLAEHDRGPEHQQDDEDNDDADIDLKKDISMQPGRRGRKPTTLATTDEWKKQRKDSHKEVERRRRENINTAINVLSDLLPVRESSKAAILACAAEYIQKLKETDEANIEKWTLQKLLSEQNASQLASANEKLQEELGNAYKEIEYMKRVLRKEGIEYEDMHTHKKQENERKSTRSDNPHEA
Method: competition protein-binding microarray
Form: double-stranded DNA, one strand shown
Medium: in vitro
Concentration: 2 µM
Notes: whole 60-bp probe, lowest competitor level
With: Pho4 competitor, 0.05 µM
Reading: higher = stronger binding
Oligonucleotide	fluorescence intensity [a.u.]
TGGGCCATTGGCCTTGATGTGATGAACAACAGACTTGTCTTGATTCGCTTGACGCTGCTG	52.4
TGCGCAACAACTTGGACAGTGGGTGTATGTCTAGAAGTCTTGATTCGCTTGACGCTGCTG	60.2
GAAAAAAAATTCTTACGCGTGAACCAAAACAAAAATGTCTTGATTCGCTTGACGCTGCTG	121
CGCGCTTGTTATACCCACGTTATTATTTGCCCCCAAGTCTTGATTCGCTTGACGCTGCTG	125
CTAACGAAGGTTTGACAAGTGGGTGACAAGCCAAGTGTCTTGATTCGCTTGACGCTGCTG	62
CATTTCCATCGATGCCATGTGACAGGGTGAATCTCGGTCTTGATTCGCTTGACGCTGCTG	755
AGTACTGTAGGCTTGCACACTTTGTTCGCACTCTTAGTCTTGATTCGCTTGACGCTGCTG	66
CGTCCTAGTGATTTTCACGTGAATTCCATGAGGAAGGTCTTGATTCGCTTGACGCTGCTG	980
TGCGCAACAACTTGTACCGTGGGTGTATGTCTAGAAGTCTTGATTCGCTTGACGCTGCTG	63
AATAATGCTGTAAGCCTCGTGACGGCATTTCATTAGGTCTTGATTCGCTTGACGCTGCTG	487
CATACCCAACCTTTTCACGTGGTCTAAGATATTTGTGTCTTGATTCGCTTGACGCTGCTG	2110
CTAATAGCGTCGTTGGTCGTGACGGCGTTTACTGCAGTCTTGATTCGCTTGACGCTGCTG	69.9
GTCTTGTCTCATTTTCACGTGCATTTCCCCACTTCAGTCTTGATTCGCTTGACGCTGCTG	866
GACATATTACATTTCCTCGTGCTTTTCGAAGTATTTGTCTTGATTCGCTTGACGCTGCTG	212
CTAACGAAGGTTTGGTCCGTGGGTGACAAGCCAAGTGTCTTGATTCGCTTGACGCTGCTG	72.1
TGCAACAACAATGCCACTTAAAACTGGCTTAACTGTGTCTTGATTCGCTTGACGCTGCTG	72.4
ATGTTGGAGTTGGGACCGATGAAGTCAGCTTCAATTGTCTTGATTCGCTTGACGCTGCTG	64.9
ACTCTAAGGTTATAGCATGTGCTATTGATAACCCAGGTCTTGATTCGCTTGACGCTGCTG	163
ATGATGGGAAACCATCACGTACGGTTTGGGAAAGGCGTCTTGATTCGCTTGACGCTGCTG	79.1
CATACCCAACCTTTTCACGTGTATTAAGATATTTGTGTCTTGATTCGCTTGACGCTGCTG	993

Block 5
Target: CCNB3, cyclin fold, Cln2 fusion (human)
Method: yeast growth competition, sequencing
Medium: yeast
Notes: weak parent motif
Relative to: not given
Reading: higher = stronger binding
Starting sequence: CDC25A docking peptide (human); PPHRRRLLFACSP; partner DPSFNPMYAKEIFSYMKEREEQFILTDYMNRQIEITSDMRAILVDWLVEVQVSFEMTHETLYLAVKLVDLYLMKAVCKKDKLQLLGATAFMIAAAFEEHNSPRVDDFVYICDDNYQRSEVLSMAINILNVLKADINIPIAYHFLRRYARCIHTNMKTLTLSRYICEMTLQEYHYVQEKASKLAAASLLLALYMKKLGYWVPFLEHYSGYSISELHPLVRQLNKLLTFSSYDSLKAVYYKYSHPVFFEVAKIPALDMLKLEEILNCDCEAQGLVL
Variant	normalised enrichment score
RPHRRRLLFACSP [P1R]	0.378
PPHRRRLLFACSQ [P13Q]	0.295
PPRRRRLLFACSP [H3R]	0.423
PPHRRRLLFACFP [S12F]	0.153
PPIRRRLLFACSP [H3I]	0.458
CPHRRRLLFACSP [P1C]	-0.103
PPHNRRLLFACSP [R4N]	0.491
LPHRRRLLFACSP [P1L]	0.118
PPWRRRLLFACSP [H3W]	0.256
PPHKRRLLFACSP [R4K]	0.359
VPHRRRLLFACSP [P1V]	0.0206
PPHRRQLLFACSP [R6Q]	0.337
PEHRRRLLFACSP [P2E]	0.619
PPHRRRLMFACSP [L8M]	0.11
PIHRRRLLFACSP [P2I]	0.109
PPHRRRLLFACSD [P13D]	0.793
PPHRRRLLFACLP [S12L]	0.495
PPHDRRLLFACSP [R4D]	0.269
PPHRRNLLFACSP [R6N]	0.45
PPHRRRLLDACSP [F9D]	-0.251
PPHRRRLLFACEP [S12E]	0.553
PPHRRRLLFAFSP [C11F]	0.301
PPHRRRLLFTCSP [A10T]	0.232
PPHRRCLLFACSP [R6C]	-0.0858
PPHRRRLLFACSC [P13C]	0.413

For quick reference, copied from above (block 1):
Oligonucleotide	E-score
CTCTCCAG	-0.342
ATCGTGTC	0.0299
GCCTAAGC	-0.17
CTAGTTAC	-0.0719
